Results pooled from the literature.
Each numbered part is a random draw from the data of one study; scales do not carry over between parts.

Series 1 — technique: aptamer microarray, sandwich; molecule type: DNA with 2'F-ANA; sample: in vitro; concentration: 200 nM; together with: Cy3 exosite-II aptamer, 400 nM; reading: higher = stronger binding; sequence: GGTTGGTGTGGTTGG
Target: Prothrombin, mature alpha-thrombin (F2, Homo sapiens, UniProt P00734)
Setting: whole 15-mer aptamer, many near background
Modification	mean fluorescence intensity
2'F-ANA at 2 3 7 9 12 15	1010 a.u.
2'F-ANA at 2 3 4 11 12 15	744 a.u.
2'F-ANA at 1 3 5 6 8 9	69.5 a.u.
2'F-ANA at 1 2 4 5 6 7 8 9 10 11 12	56.5 a.u.
2'F-ANA at 1 2 3 6 7 10 11 12 13 14	55.2 a.u.
2'F-ANA at 2 3 4 9 10 14	193 a.u.
2'F-ANA at 2 5 7 8 9 11 13 14 15	44.7 a.u.
2'F-ANA at 1 6 7 8 10 12	71.3 a.u.
2'F-ANA at 1 3 5 6 7 10 14	44.5 a.u.
2'F-ANA at 1 3 5 6 7 8 9 11 13	52 a.u.
2'F-ANA at 2 5 6 7 8 9	85.6 a.u.
2'F-ANA at 5 6 8 9 11 12 13 14	48.2 a.u.
2'F-ANA at 1 2 3 4 10 15	59.2 a.u.
2'F-ANA at 1 2 3 6 7 8 10 15	85.1 a.u.
2'F-ANA at 3 4 7 8 9 12 13	805 a.u.
2'F-ANA at 1 2 3 5 6 10 13	46.7 a.u.
2'F-ANA at 2 3 4 7 8 12 13 14 15	310 a.u.
2'F-ANA at 4 8 9 10 11 13 14	54.4 a.u.
2'F-ANA at 1 2 4 5 7 8 9 12	134 a.u.
2'F-ANA at 1 2 3 4 7 9 11 12 15	245 a.u.
2'F-ANA at 1 2 3 4 8 9 10 12 13 14	53.6 a.u.
2'F-ANA at 2 4 5 6 7 9 10 11 12	72.2 a.u.
2'F-ANA at 2 6 7 8	516 a.u.
2'F-ANA at 2 3 4 5 6 7 8 13 14	52.6 a.u.
2'F-ANA at 2 3 6 7 8 10 14	337 a.u.

Series 2 — technique: RNA Bind-n-Seq; molecule type: RNA; sample: in vitro; concentration: not given; setting: RNA with constant flanks, ends assumed; reference: input RNA pool; reading: higher = stronger binding
Target: RING finger protein unkempt homolog, zinc fingers 1-6, GST-SBP tag (UNK, Homo sapiens, UniProt Q9C0B0, residues 30-357)
Residues (chain): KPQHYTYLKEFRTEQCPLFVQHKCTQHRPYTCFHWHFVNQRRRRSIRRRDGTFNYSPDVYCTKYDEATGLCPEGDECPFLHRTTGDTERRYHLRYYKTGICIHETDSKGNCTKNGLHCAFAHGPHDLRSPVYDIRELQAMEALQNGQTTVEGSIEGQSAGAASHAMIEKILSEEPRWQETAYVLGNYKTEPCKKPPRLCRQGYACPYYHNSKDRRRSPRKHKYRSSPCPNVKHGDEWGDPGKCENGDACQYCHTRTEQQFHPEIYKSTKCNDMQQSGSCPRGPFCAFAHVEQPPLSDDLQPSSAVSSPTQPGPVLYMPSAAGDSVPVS
Sequence	bound/input enrichment
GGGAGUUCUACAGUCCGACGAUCAGAGGCUGAGAGUCCCCCCCACGGUUUUUUUUUUUCUUCAUUUAGAUGUAACAAGCCCCGCCGUUUAUGUUCAUCAAUUGUCUGUAUAUCUAUAUUUUACCCAUGUACUCUUUUGAUGUACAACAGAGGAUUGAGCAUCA	2.22 ratio
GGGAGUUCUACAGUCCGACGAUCGAUAAGGUACACAUACAUUAUUUGAGUAACUGUUUCCUUGGGGGCCAAUCUGUGUAUGCUUUCCGAAGUUUACAGAAUGCUUUUAUUUUUGUCUAUAACAAACAGUCUGUCAUUUAUUUCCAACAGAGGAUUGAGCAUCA	0.207 ratio
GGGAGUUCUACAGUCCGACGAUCUGUAUUCGAUAGAUCUCUACAACUAUGCCCCUUAUCGUAGGGAAUACUCAUAACUUUGUGUCCGCACGAUGGAGGAUACAAUGCUUUGCAGCAUAAGAGAGAAAAUAGUUCUACUAGCCACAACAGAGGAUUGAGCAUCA	1.06 ratio
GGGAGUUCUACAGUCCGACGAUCUUUGGAGCUCCUCCUCAUGCUGGUGGUGGCAUUGGGCUGGAAAGGGUGACGAUGCUGUUUUCCGGAUUGCAUAACGUACGCCAGACCUCAAUGUUCCCUCGUGACCCCAAACGACUCACGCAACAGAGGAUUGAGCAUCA	0.08 ratio
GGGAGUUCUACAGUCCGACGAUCCCCCCUCGGAAGAAAAGGGCCCGGGCAGACCCCACUGUUGAAAGUGAGGAGGCGUUUAAGAACCGAAUGGAGGUUAAAGUGAAGAUUCCUGAAGAAUUAAAACCAUGGCUUGUUGAGGACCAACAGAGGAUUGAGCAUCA	0.426 ratio
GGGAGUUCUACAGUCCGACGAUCUUUGUUUGUAACUUAUCUGUAAAAGGUUCCCCCCCCCUACUGUCAAAAAAUAUGCAUGUACCGUAAUCCGGACUUCAUUCCUCCAUGUUUUCUUCCCUUAUCUUACUGUCAUUGUCCUUACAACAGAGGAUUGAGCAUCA	0.834 ratio
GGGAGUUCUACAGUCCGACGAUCGCAGCAAGAUCAUGUGCAUAUCAUCCCAUUGUAAAGCAACUUCAAAAAUAUGGGAACAGUCCGUUAUUUUUACACAGUUCUUUUUGUUUGUGUGUGUGUGUGUGUGCUGUCGCUUGUCGACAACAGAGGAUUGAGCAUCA	0.228 ratio
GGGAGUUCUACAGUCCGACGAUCGAUGCAGUUCUUAUUGAUUACCAGAGAAAUGUACCAGCUGCUAGAGAACCAGAAGUGCUCCGUACUAUGGCCAUUAUUGUCAACAAAUUAGGUGGACAUAUAACAGCUGAAAUACCUCAACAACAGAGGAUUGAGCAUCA	0.204 ratio
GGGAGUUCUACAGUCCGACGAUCUAUUGCAAGGACCUUCUUUGCUGCCAGUUACCAUAGGCUGUUUUAAGUUAGAAAACUGAACCGCAACACUGAAUACUGUAGAGAUGCACUUUGCUCAGUAAUACUUGAGUUGUUGCAAUACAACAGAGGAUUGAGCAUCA	0.347 ratio
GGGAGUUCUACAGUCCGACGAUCCUUUGUCUAGCAAAUAAAAGAUGUUAAUAUAUUCCUGUUAUUGGCAUGUGCACGACUGUUAUCCGAAGCCACUUUAUCAUUUUCCUGCUUUAAAUAGAAAUGUCUAUUUAUGAAUUCUGCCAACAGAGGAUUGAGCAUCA	1.02 ratio
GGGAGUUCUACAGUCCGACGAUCAAGAUCCUUUCGGUAAAUGGCCAAGACCUAAAGAACCUGCUGCACCAGGAUGCUGCCGACCUCUUUCGUAAUGCAGGCUAUGCUGUGUCUCUGAGAGUGCAGCACAGGUUACAGGUGCAGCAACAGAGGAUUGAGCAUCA	0.0799 ratio

Series 3 — technique: RNA Bind-n-Seq; molecule type: RNA; sample: in vitro; concentration: 1 µM; setting: whole 134-nt RNA, ends assumed; together with: 150 mM KCl; reference: input library; reading: higher = stronger binding
Target: Ras GTPase-activating protein-binding protein 1, C-terminal RGG region (G3BP1, Homo sapiens, UniProt Q13283)
UniProt Q13283, sequence (whole entry, looked up): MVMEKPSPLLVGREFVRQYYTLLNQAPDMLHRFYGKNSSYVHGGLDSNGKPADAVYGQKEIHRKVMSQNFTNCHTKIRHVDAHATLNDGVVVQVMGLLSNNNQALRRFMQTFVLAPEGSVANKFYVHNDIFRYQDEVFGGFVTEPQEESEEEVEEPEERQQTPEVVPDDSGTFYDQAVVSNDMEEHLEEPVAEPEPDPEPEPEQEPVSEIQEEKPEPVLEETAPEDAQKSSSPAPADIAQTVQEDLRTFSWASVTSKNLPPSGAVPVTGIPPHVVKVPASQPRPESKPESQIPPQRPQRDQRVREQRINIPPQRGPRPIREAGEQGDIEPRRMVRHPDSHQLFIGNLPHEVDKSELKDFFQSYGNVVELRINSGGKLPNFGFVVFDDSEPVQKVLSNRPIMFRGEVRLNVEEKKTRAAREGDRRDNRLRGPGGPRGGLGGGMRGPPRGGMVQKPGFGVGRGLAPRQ
Sequence	log2 enrichment
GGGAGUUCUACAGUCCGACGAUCUAACUUUAGAGGAGGAUCUGAUGGAAAUGGCAGUGGACGUGGAUUUGGGGAUGGCUAUAAUGGGUAUGGAGGAGGACCUGGAGGUGGCAAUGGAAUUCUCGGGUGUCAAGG	-1.25
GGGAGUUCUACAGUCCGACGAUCAGUCCUGUGCUACACAUCGUAUGUACCGAAUCGGGGUUUGGGGUGGGGAAAAAGGGGAAAGUAUUAUGUUACGCCGUUCGGAUCUGCACUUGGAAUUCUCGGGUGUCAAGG	1.23
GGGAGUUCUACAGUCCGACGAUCUGUUCCUGUUGAUGAAAAUCUUUUCACUGGAGAGGAUUUGGAUGAACUAGAAGAAGAAUUAAAUACACUUGAUUUAGAAGAAUGACACCAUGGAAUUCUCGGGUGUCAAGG	-1.44
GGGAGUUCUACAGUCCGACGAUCUCCUCAAGUCCUGUGCUACACAUCGUAUGUACCGAAUCGGGCGGCGGGGCGGAAAGUAUUAUGUUACGCCGUUCGGAUCUGCACUUCCAGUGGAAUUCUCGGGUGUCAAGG	-0.68
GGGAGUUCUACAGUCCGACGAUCCCUGUGCUACACAUCGUAUGUACCGAAUCGGGAAAAAAAGGAAAAAAAGGGAAAAAAAGGAAAGUAUUAUGUUACGCCGUUCGGAUCUGCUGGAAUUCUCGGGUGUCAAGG	-1.87
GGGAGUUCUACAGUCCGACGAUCUCAAGUCCUGUGCUACACAUCGUAUGUACCGAAUCGGGAAGGGAAGGGGAAGGGGAAAGUAUUAUGUUACGCCGUUCGGAUCUGCACUUCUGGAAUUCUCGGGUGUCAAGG	2.64
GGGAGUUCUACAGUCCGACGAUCUCCUGUGCUACACAUCGUAUGUACCGAAUCGGGGUUUUUGGGGUUUUUGGUUUUUGGGGAAAGUAUUAUGUUACGCCGUUCGGAUCUGCAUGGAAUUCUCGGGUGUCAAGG	-0.352
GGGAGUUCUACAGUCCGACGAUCAAGUCCUGUGCUACACAUCGUAUGUACCGAAUCGGGGUUUUGGUUUUGGUUUUGGGAAAGUAUUAUGUUACGCCGUUCGGAUCUGCACUUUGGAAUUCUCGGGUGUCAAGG	-1.75
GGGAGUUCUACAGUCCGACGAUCCCUGUGCUACACAUCGUAUGUACCGAAUCGGCCCCCCCGGGGCCCCCCCGGCCCCCCCGGGAAAGUAUUAUGUUACGCCGUUCGGAUCUGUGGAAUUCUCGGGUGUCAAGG	-1.68
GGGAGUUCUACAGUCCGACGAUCACCAUGCAGGUGGGCAUCUUUGGGAAGUGGGGCAAGGGGGGGAUAGGGAGGGGGGUAACACUUUGGGACCAGGUGGUCCCAGGUCGUUUCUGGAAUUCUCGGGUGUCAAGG	2.48
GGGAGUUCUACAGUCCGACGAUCCCUGUGCUACACAUCGUAUGUACCGAAUCGGGUUUUUUUGGGAAAAAGGGAAAAAAAGGGAAAGUAUUAUGUUACGCCGUUCGGAUCUGCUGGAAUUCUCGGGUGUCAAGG	-2.21
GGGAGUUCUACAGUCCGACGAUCCACAGACAACACGCACCCACACAGACACAGAGGGAAGGGGUUGGAAUGGGGACAGGGUGCACAGCAGGGCGGGGUAGGACCCCAGCCCCUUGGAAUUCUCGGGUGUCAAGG	-0.719
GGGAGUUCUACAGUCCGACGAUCCCUCAAGUCCUGUGCUACACAUCGUAUGUACCGAAUCGGGCCGGCCGGCCGGGAAAGUAUUAUGUUACGCCGUUCGGAUCUGCACUUCCAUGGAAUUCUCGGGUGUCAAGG	-0.948
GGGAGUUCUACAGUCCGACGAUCUCAAGUCCUGUGCUACACAUCGUAUGUACCGAAUCGGGUUUUUGGGUGGGAGGGAAAGUAUUAUGUUACGCCGUUCGGAUCUGCACUUCCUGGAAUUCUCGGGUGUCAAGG	1.02

Series 4 — technique: universal PBM; molecule type: double-stranded DNA, one strand shown; sample: in vitro; concentration: not given; reading: higher = stronger binding
Target: Sal-like protein 4, full length isoform B (SALL4, Homo sapiens, UniProt Q9UJQ4-2, residues 1-616)
Setting: 8-mer, flanks averaged, mean of replicates
Sequence	E-score
CTACGGTC	-0.298
ACCCACCC	-0.0969
ACACAGGG	-0.0342
AATCCAAA	0.266
AGGCGCAG	-0.255
CGTCCCCA	-0.197
ACCCGAGG	-0.128
CCTAGCTA	5e-05
CCGGAATC	-0.21
AATTTCTG	0.27
CCGCCTCG	-0.253
ATGTCGAG	-0.0545
AGCGGACG	-0.319
CCTAACCA	-0.0126
ATTGATGA	0.266
CAAGAGCA	-0.0382
AGAAGGAT	0.0304
GAGGTGCA	-0.178
CCGCCCTC	-0.258
ACGCTACC	-0.206
AACGCGCC	-0.184
GTCGTACA	0.071
CTGACAAA	0.133
CTTTACCC	0.0404
AGCGTAAG	-0.0974
